Measurements collected from several papers.
Compare with care: the assays were run in different laboratories.

C[C@@H]1C(=O)O[C@@H](C)/C=C/C=C\[C@@H](C)[C@@H]2C=C[C@@H]3C[C@@]4(C)O[C@H]4[C@@H](C)[C@H]3[C@@H]2C(=O)C(Cl)(Cl)C1=O — MIC (Staphylococcus aureus; MRSA clinical isolate; resistant: OXA,CLI,DOX,ERY,TET,TOB): 0.1 µg/mL
O=CCNCCOn1c(=O)n(OCCNCCO)c(=O)n(OCCNCCOn2c(=O)n(OCCNCCO)c(=O)n(OCCNCCO)c2=O)c1=O — MIC (Proteus mirabilis; microbial growth, broth dilution): 2 µg/mL
CC1(C)[C@H](NC(=O)/C(=N\OC2(C(=O)O)CCCC2)c2csc(N)n2)C(=O)N1OS(=O)(=O)O — MIC (Proteus mirabilis; agar dilution; ATCC 49565, susceptible): 0.06 µg/mL
CCC(=O)c1ccc(Oc2ccc(Cl)cc2Cl)c(O)c1 — MIC (Mycobacterium tuberculosis; H37Rv): 50 to 100 µg/mL
CC[C@H]1OC(=O)[C@H](C)[C@@H](O[C@H]2C[C@@](C)(OC)[C@@H](O)[C@H](C)O2)[C@H](C)[C@@H](O[C@@H]2O[C@H](C)C[C@H](N(C)C)[C@H]2O)[C@](C)(O)C[C@@H](C)C(=O)[C@H](C)[C@@H](O)[C@]1(C)O — MIC (Bacillus subtilis; microbial growth; DSM402): 0.5 µg/mL
C=CCO/N=C(\C(=O)N[C@@H]1C(=O)N(OS(=O)(=O)O)C1(C)C)c1csc(N)n1 — MIC (Proteus mirabilis; agar dilution; ATCC 49565, susceptible): 0.125 µg/mL
CC[C@H]1OC(=O)[C@H](C)[C@@H](OC(=O)Cc2ccc(C(F)(F)F)cc2)[C@H](C)[C@@H](O[C@@H]2O[C@H](C)C[C@H](N(C)C)[C@H]2O)[C@](C)(OC)C[C@@H](C)C(=O)[C@H](C)[C@@H](O)[C@]1(C)O — MIC (Bacillus subtilis; microbial growth; DSM402): 2 µg/mL
COc1cccc(OC)c1C(=O)N[C@@H]1C(=O)N2[C@@H]1SC(C)(C)[C@@H]2C(=O)O — MIC (Gram-negative bacteria; seven strains): 256 µM
C=C(NC(=O)c1csc(-c2ccc(NC(=O)CCCCCBr)cc2)n1)C(=O)NC(=C)C(=O)OC — MIC (Enterococcus hirae; microbial growth; ATCC10541): > 20 µM
C=C(NC(=O)c1csc(-c2nc3c(cc2O)-c2nc(cs2)C(=O)NC(C(C)O)C(=O)NC(=C(C)OC)c2nc(cs2)C(=O)NC2c4nc(cs4)C(=O)NC(COC(=O)c4c5c6c(cccc6n4O)COC(=O)C(OC4CC(C)(O)C(N(C)C)C(C)O4)C2OC5)c2nc-3cs2)n1)C(N)=O (stereo not drawn) — MIC (Streptococcus pneumoniae; ATCC 49619): 0.0078 µg/mL
C#CCO/N=C(\C(=O)N[C@@H]1C(=O)N(OS(=O)(=O)O)C1(C)C)c1csc(N)n1 — MIC (Proteus mirabilis; agar dilution; ATCC 49565, susceptible): 0.06 µg/mL
CC[C@H]1OC(=O)[C@H](C)[C@@H](OC(=O)Cc2cccc(Cl)c2)[C@H](C)[C@@H](O[C@@H]2O[C@H](C)C[C@H](N(C)C)[C@H]2O)[C@](C)(OC)C[C@@H](C)C(=O)[C@H](C)[C@@H](O)[C@]1(C)O — MIC (Bacillus subtilis; microbial growth; DSM402): 2 µg/mL
Oc1cc(Cl)ccc1Oc1ccc(CNc2ccccc2)cc1Cl — MIC (Mycobacterium tuberculosis; H37Rv): 50 µg/mL
Cc1c(CN(C)C(=O)/C=C/c2cnc3c(c2)CC(N)C(=O)N3)oc2ccccc12 (stereo not drawn) — MIC (Klebsiella pneumoniae; broth microdilution; S20595): 16 µg/mL
C/C(=C\c1ccc(O)cc1)C(=O)Nc1ccc(C(=O)N[C@@H](Cc2c[nH]nn2)C(=O)Nc2ccc(C(=O)Nc3ccc(C(=O)Nc4ccc(C(=O)O)c(O)c4)c(O)c3)cc2)cc1 — MIC (Bacillus subtilis; broth microdilution; DSM 10): 1 µg/mL
CC1(C)[C@H](NC(=O)/C(=N\OCc2cc(=O)c(O)cn2O)c2csc(N)n2)C(=O)N1OS(=O)(=O)O — MIC (Proteus mirabilis; agar dilution; ATCC 49565 susceptible): ≤ 0.03 µg/mL
CC[C@H]1OC(=O)[C@H](C)[C@@H](OC(=O)Cc2ccc([N+](=O)[O-])cc2)[C@H](C)[C@@H](O[C@@H]2O[C@H](C)C[C@H](N(C)C)[C@H]2O)[C@](C)(OC)C[C@@H](C)C(=O)[C@H](C)[C@@H](O)[C@]1(C)O — MIC (Bacillus subtilis; microbial growth; DSM402): 0.1 µg/mL
C#CCO/N=C(\C(=O)N[C@@H]1C(=O)N(OS(=O)(=O)O)C1(C)C)c1nsc(N)n1 — MIC (Proteus mirabilis; agar dilution; ATCC 49565, susceptible): 2 µg/mL
CCCCCCC#Cc1cncc(-c2nnc(SCc3ccc(Cl)cc3)n2C)c1 — MIC (ESKAPE panel pathogens): > 64 µg/mL
CC1(C)[C@H](NC(=O)/C(=N\OCC(=O)N2CCC(C(=O)O)CC2)c2csc(N)n2)C(=O)N1OS(=O)(=O)O — MIC (Proteus mirabilis; agar dilution; ATCC 49565, susceptible): 0.5 µg/mL
CCOc1c(NC(=O)c2ccc(NC(=O)[C@H](Cc3c[nH]nn3)NC(=O)c3ccc(NC(=O)/C(C)=C/c4ccc(O)cc4)cc3)cc2)ccc(C(=O)Nc2ccc(C(=O)O)c(O)c2OC)c1O — MIC (Bacillus subtilis; broth microdilution; DSM 10): 0.125 µg/mL
CC1C=CC=CC(C)C2C=CC3CC(C)(O)C(Cl)C(C)C3C2C(=O)C(Cl)(Cl)C(=O)C(C)C(=O)O1 (stereo not drawn) — MIC (Staphylococcus aureus; clinical MSSA isolate): 0.1 µg/mL
C#CCNC(=O)C(C)(C)O/N=C(\C(=O)N[C@@H]1C(=O)N(S(=O)(=O)O)[C@H]1C)c1csc(N)n1 — MIC (Proteus mirabilis; agar dilution; ATCC 49565 susceptible): 1 µg/mL
CC1(C)S[C@@H]2[C@H](NC(=O)[C@H](NC(=O)C3=C(O)C(c4ccccc4F)NC3=O)c3ccccc3)C(=O)N2[C@H]1C(=O)O (stereo partly drawn) — MIC (Escherichia coli; broth microdilution; ATCC 25922 wild type; together with: clavulanic acid 6 µg/mL): 12.5 µg/mL
COC1C=COC2(C)Oc3c(C)c(O)c4c(c3C2=O)C2=NC3(CCN(CC(C)C)CC3)NC2=C(NC(=O)C(C)=CC=CC(C)C(O)C(C)C(O)C(C)C(OC(=O)Nc2cscn2)C1C)C4=O (stereo not drawn) — MIC (Mycobacteroides abscessus; ATCC 19977; single-strain MIC): 46.6 µg/mL
COc1c(NC(=O)c2ccc(NC(=O)[C@H](Cc3c[nH]nn3)NC(=O)c3ccc(NC(=O)/C(C)=C/c4ccc(O)cc4)cc3)cc2)ccc(C(=O)Nc2ccc(C(=O)O)c(O)c2)c1O — MIC (Bacillus subtilis; broth microdilution; DSM 10): 0.5 µg/mL
CC1(C)[C@H](NC(=O)/C(=N\OCC(=O)N2CCC[C@@H]2C(=O)O)c2nsc(N)n2)C(=O)N1OS(=O)(=O)O — MIC (Proteus mirabilis; agar dilution; ATCC 49565, susceptible): 0.25 µg/mL

Some of these lines once more:
CC1(C)[C@H](NC(=O)/C(=N\OCC(=O)N2CCC[C@@H]2C(=O)O)c2nsc(N)n2)C(=O)N1OS(=O)(=O)O — MIC (Proteus mirabilis; agar dilution; ATCC 49565, susceptible): 0.25 µg/mL
Cc1c(CN(C)C(=O)/C=C/c2cnc3c(c2)CC(N)C(=O)N3)oc2ccccc12 (stereo not drawn) — MIC (Klebsiella pneumoniae; broth microdilution; S20595): 16 µg/mL
COC1C=COC2(C)Oc3c(C)c(O)c4c(c3C2=O)C2=NC3(CCN(CC(C)C)CC3)NC2=C(NC(=O)C(C)=CC=CC(C)C(O)C(C)C(O)C(C)C(OC(=O)Nc2cscn2)C1C)C4=O (stereo not drawn) — MIC (Mycobacteroides abscessus; ATCC 19977; single-strain MIC): 46.6 µg/mL
